Experimental data from different studies.
A part holds a random share of what one study measured.

Series 1 — technique: universal PBM; form: double-stranded DNA, one strand shown; matrix: in vitro; concentration: not given; direction: higher = stronger binding; quantity: E-score
Target: Sal-like protein 4, full length isoform B (SALL4, Homo sapiens, UniProt Q9UJQ4-2, residues 1-616)
Setting: 8-mer, flanks averaged, mean of replicates
AAGTTCTC: -0.0833
AGGATAGG: 0.00136
AAACACCA: 0.0815
AATCAGAG: 0.0479
AGCAAACA: 0.0388
TAGACGCA: 0.127
CCCGAGAG: -0.152
ATCAATAG: 0.309
ACGGGCCT: -0.283
TAGTGGCA: -0.0434
TACATCGA: 0.0863
CTGCGAAG: -0.188
GCCATACC: -0.117
GCATTGCA: -0.0548
AGGTTTAT: 0.264
GCATACCC: -0.17
TATTGCAA: 0.214
GTCCAAAA: 0.189
ACGAACTA: 0.0247
GCATCATA: 0.323
ATTAGCCG: -0.0594
GCCCTTGA: -0.203
GACGAGTC: -0.121
CGTTCGGC: -0.186
GAGCTTGC: -0.27

Series 2 — technique: competition protein-binding microarray; form: double-stranded DNA, one strand shown; matrix: in vitro; concentration: 2 µM; added: Cbf1 competitor, 0.05 µM; direction: higher = stronger binding; quantity: fluorescence intensity
Target: Phosphate system positive regulatory protein PHO4, full length, GST-tagged (PHO4, Saccharomyces cerevisiae, UniProt P07270, residues 1-312)
Setting: whole 60-bp probe, lowest competitor level
Construct (chain): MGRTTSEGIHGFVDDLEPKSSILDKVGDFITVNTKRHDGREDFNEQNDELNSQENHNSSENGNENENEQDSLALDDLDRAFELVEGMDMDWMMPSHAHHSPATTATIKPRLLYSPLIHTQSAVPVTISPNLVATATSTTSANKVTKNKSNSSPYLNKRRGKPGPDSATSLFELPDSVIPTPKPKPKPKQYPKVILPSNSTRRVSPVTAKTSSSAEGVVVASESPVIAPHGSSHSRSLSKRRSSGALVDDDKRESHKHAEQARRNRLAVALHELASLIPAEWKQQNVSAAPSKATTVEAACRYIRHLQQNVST
CTTCTCTAGGTTATGTTCATGCCCTTGCTCATCAACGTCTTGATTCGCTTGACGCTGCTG: 4890 a.u.
TCATTTCGAATCGCGTACGTGGCCGGTTGTGGCTGGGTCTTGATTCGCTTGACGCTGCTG: 7040 a.u.
GGTGATAGCCATATCTTCGTGCTTTTGTTGCGATTGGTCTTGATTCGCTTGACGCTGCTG: 6110 a.u.
CATACCCAACCTTGCTTCGTGGGTGAAGATATTTGTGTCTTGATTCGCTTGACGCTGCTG: 7080 a.u.
AAATTACTAAGTTGCCATGTGGGTGACGCCGTATGAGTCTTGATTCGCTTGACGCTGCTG: 10700 a.u.
CTTCTGTAAATTTGATATGTGGGTGGACGCGCCCCGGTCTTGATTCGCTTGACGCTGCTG: 5030 a.u.
CGGAAGGGAGATCCGCACGTGACGGTTGAAAAAGGGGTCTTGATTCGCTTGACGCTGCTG: 14800 a.u.
GTCTTGTCTCATTGGGTTGTGGGTGTCCCCACTTCAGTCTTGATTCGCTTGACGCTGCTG: 5240 a.u.
TCCAATCTTTTCCGTCACATGTACACACTCATATACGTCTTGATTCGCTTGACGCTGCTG: 9810 a.u.
GTTTGACTACGTACGACCGTGCCAGACTTGCCGATGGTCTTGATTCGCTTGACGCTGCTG: 6460 a.u.
CTAACGAAGGTTTTTCACGTGCGTTACAAGCCAAGTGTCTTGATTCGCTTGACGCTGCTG: 14500 a.u.
ATCCGATTGGATGGACACATGCGATTCAACGCCGCTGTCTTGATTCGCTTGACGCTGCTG: 8580 a.u.
AAAGCGGTAATTTGCAGGGTGGGTGCAGATATCTATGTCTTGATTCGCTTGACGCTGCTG: 4830 a.u.
ATTGGTGCAATTCCGCACGTTCCAACTTTCCGATGCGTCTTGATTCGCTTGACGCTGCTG: 11800 a.u.
ATGAAACCACTTTAGCACGATGAAATAGCAATATGTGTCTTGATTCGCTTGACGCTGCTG: 8660 a.u.
AACGCGTCTTAAAAGAATGTGACAGGAGATGGGATGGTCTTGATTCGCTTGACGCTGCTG: 5220 a.u.
AAAGCGGTAATTTGGGTAGTGGGTGCAGATATCTATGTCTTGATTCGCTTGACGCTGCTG: 4270 a.u.
AAGCAACAACACCGACCCGTGCCAGCGACATCTGCTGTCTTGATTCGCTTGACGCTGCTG: 11600 a.u.
CTAACGAAGGTTTGTCACTCTACTTACAAGCCAAGTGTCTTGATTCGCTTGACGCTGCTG: 3430 a.u.

Series 3 — technique: protein-binding microarray; form: double-stranded DNA, one strand shown; matrix: in vitro; concentration: 2200 nM top; setting: 60-bp whole probe; added: salmon DNA 0.4 mg/ml; reference: random background probes; direction: higher = stronger binding; quantity: fitted relative affinity; constant ends, left off below: GCCTAGCAC … GTCTTGATTCGCTTGACGCTGCTG
Target: Interferon regulatory factor 7, full length, phosphomimetic (IRF7, Homo sapiens, UniProt Q92985, residues 1-503, S471D/S472D/S475D/S476D/S477D/S483D/S484D/S487D)
Sequence of UniProt Q92985 (whole entry, unmodified, looked up): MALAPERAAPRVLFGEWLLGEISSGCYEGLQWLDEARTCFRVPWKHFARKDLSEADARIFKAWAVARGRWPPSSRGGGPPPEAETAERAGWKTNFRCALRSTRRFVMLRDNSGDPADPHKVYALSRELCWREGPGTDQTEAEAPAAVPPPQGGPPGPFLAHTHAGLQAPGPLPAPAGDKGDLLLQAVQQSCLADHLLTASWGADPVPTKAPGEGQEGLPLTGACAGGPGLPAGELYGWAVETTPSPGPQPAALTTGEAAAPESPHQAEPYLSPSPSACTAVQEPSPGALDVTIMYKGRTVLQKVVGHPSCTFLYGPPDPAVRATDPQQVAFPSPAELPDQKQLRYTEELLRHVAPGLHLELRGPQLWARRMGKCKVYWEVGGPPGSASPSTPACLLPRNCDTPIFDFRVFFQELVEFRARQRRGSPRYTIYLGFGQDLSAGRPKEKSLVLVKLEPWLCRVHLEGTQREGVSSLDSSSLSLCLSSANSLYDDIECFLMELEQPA
GACGGTCTCCGTCTCGGGACGTGCTAG: -0.441 z-score
TTGGGTATCGGTTTCGGTTAGTGCTAG: 6.86 z-score
GACGATATGGGGTATCGAGACGTGCTA: 0.426 z-score
GAGGATTTCAGTTTCGAGACGTGCTAG: 4.94 z-score
TTAGGACTGGACTTTCTGTTAGTGCTA: 1.31 z-score
GACGGTCTGCTTCTCCTGACGTGCTAG: 0.781 z-score
TTAGGTATCGGTTGCGGTTAGTGCTAG: 1.19 z-score
GACGGTATCGGGTTTCGGGTCGTGCTA: 3.42 z-score
GACGAACTGGGGTTTCTAGACGTGCTA: 0.407 z-score
TTAGGTATCGGGACAGGGTTAGTGCTA: 0.0361 z-score
GACGGTCTCGGTATGGGGACGTGCTAG: 0.112 z-score
TTAGATATCGGGTTTCGACTAGTGCTA: 1.62 z-score
GAGTGCTGGGATTACAGGCAGTGCTAG: -0.18 z-score
TCAGAATTGAAAATTAGTACTGTGCTA: -0.938 z-score
TTAGGTTCCCGTTTCCTTTAGTGCTAG: 3.34 z-score
ACCTATGTGTACCACTAGACGTGCTAG: 0.877 z-score
TCATGCTTAGTATTTTTTACTGTGCTA: 0.313 z-score
GACGATTTCGGGACTAGAGACGTGCTA: 1.46 z-score
CATCGTAAGCAAAAATGATTGTGCTAG: -0.275 z-score
TTAGGTATCGGGTTTCAGTTAGTGCTA: 1.32 z-score
TCAGTAATGCTTCTGTAACTGTGCTAG: 0.478 z-score

Series 4 — technique: RNA Bind-n-Seq; form: RNA; matrix: in vitro; concentration: not given; reference: input RNA pool; direction: higher = stronger binding; quantity: bound/input enrichment
Target: RING finger protein unkempt homolog, zinc fingers 1-6, GST-SBP tag (UNK, Homo sapiens, UniProt Q9C0B0, residues 30-357)
Setting: RNA with constant flanks, human-mouse chimeric sites, ends assumed
Target sequence (chain): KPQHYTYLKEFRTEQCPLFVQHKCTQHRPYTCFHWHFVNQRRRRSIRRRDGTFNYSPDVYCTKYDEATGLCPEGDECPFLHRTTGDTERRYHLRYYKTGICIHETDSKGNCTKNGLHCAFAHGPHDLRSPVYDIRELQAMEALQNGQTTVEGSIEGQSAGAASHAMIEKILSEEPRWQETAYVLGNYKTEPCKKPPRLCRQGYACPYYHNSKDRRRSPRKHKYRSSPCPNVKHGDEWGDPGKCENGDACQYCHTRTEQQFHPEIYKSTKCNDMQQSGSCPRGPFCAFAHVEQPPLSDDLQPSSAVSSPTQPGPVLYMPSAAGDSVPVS
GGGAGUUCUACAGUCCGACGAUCGCACUUCUCAAAUACUGGCCAAAGACUCACAGUCCAAAAGAAGUAAUGUUCUUAAAUGAAUUAGAAGAAAUUUUAGAUGUAAUUGAACCAUCAGAAUUUGUGAAGAUCAUGGAGCCUCUUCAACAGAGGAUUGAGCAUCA: 0.567 ratio
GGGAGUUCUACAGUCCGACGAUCCCAAUCGUGGAGCAGUACUUGAAGACAAAGAAAAAUUCUAAUAAUUUAAUCAUGAAAUACAUUAGCUGCCGCCUGCUGACACUCAUCAUUAUACUGUUAGCGUGUAUCUACCUGGGCUAUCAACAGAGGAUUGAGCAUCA: 0.54 ratio
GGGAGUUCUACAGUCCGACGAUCUCUUUAAAAAAAAAAUUACCUUUUCUGCAUAUUAUAGAUGGAGUAAAGAUCCACGUUCAAGCUCAAAGAGCAAAGGCUUUGCACGGAGCUCAAACAUCUGAUGAAGAAAGAUUUCUGAGACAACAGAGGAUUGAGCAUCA: 0.234 ratio
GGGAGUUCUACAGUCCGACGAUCCCAAUCGUGGAGCAGUACUUGAAGACAAAGAAAAAUUCUAAUAAUUUAAUCAUCAAGUACAUUAGCUGCCGCCUGCUGACAUUUGUGAUUAUACUGUUAGCGUGUAUCUACCUGGGCUAUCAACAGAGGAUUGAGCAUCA: 0.22 ratio
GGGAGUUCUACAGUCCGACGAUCGGUGGGGUGGUCAUUGCCGUUUGAGCUGCUGAUUUUCUUAUGAAUCAUUCAAAACUCUCGUGUAGGGUUGACAAUGUGGGGGGGUGGGGGAUCCAGCUAUUUUUUUUAUUUUCAAGUCCACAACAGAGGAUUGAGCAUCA: 2.36 ratio
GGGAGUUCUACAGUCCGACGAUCGACAGUGAAGGCCCACUGUGUGAAUUGCUUUUUUUCUUCCUGACUGCAAUCUUCCAGGCGAUGGCUGAAGAAGAGGAGGAAGUAGCCAAAGAGCAACUAACUGAUGCUGACACCAAAGAUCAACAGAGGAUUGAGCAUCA: 0.0694 ratio
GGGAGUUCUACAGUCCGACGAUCUUGUCGAAGACUCAACGAAAGACUCCAACGGUUAUUCAUAAACAUUAUCAAAUUCAUCGCAUUAGACAUUUUUAUAUGAGAAAAGUCAAAUUUACUCAACAGAAUUACCAUGACAGACUGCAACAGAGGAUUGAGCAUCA: 7.18 ratio
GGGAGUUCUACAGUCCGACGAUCCGCAGAAGAUUAAAGGGUGAGAGUGGGGUGGAAGACUGUGUCAUGGCUCUGGAGACACUGUUCAGUGUCCUGCUUUCUCUGUGCAGACUGAUGGCCCCUUACACGCCCUUUCUGACUGAGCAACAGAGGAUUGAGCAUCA: 0.0557 ratio
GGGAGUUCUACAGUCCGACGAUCGGACAUCUUGUCAGGAUUUAUGUUCCUGUGAAACAAGUGAACACUCUGAUACACUUCAUCUGCUUGUACAUCUGUAUUUGUAUAAUAUGUAAAUAUGUUAAUCCAAGCAAUGUGUCACUUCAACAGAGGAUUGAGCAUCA: 0.0903 ratio
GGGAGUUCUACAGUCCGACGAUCUCGGAUGCUGUGCUGGGUCACUUUUCAUAUCCAGAUCCUUCACAGUGGACAGAUGAAGAAUUAGGUAUCCCUCCUGAUGACGAGGACUGACACUGUAGACUCAGCCUACGAGUAGGAGCACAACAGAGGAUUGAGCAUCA: 0.394 ratio
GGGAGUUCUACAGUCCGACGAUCUUGAAAACAAACUGAUUUAAGUUUGAGUAUCACAAUGUUAGCUUUCUAAUUCCAUAAAGAUAGUUUUUUUUUACAGUUUAUAAUCUGACAUCACCCCAGCGCCAUUUGUAAAGAGCAACUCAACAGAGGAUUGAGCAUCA: 13.8 ratio

A few entries again (series 3):
TTAGGTATCGGGTTTCAGTTAGTGCTA: 1.32 z-score
TCATGCTTAGTATTTTTTACTGTGCTA: 0.313 z-score
TTGGGTATCGGTTTCGGTTAGTGCTAG: 6.86 z-score
CATCGTAAGCAAAAATGATTGTGCTAG: -0.275 z-score
